Measurements gathered from unrelated publications.
Each line is one published result; not all experiments were run side by side. Several values in a cell are separate wells, animals, samples, runs or records.
Target: Serine/threonine-protein kinase PAK 5 (PAK5, Homo sapiens, UniProt Q9P286)

| SMILES | test | conditions | how to read | endpoint | value |
| --- | --- | --- | --- | --- | --- |
| O=C(Cc1ccc(OCc2ccccc2)cc1)NC1(C(=O)O)CCN(C(=O)c2ccc(-c3cccc(Cl)c3)cc2)CC1 | enzyme activity, inhibitor | 10 µM |  | activity vs control | 112% |
| C=CC(=O)N1Cc2nc(-c3cc(-c4cc(Cl)cnc4Cl)c(F)cc3F)n(-c3ccncn3)c2C1 | cell-free assay, inhibitor | 1 µM |  | inhibition | -0.1% |
| Cc1cccc(O[C@H]2CCC[C@@H](C(C)CNCc3ccncc3)C2)c1 (relative stereo) | enzyme activity, inhibitor | 1 µM |  | inhibition | -9% |
| CCN1CCN(Cc2ccc(C(=O)Nc3ccc(C)c(NCc4cnc5[nH]ccc5c4OC)c3)cc2C(F)(F)F)CC1 | binding, competition with immobilised ligand | 1 µM |  | remaining binding | 100% |
| Cc1cnc2nc1Nc1cccc(c1)COC/C=C/COCc1cc(ccc1OCCN1CCOCC1)N2 | binding | 0.1 µM |  | remaining binding | 72% |
| Cc1cccc(-c2ccc3nc(NC(=O)C4CCCCC4)nn3c2)c1 | enzyme activity, Dundee kinase panel | 10 µM |  | remaining activity | 82% |
| Cc1nc2c(F)cc(-c3nc(Nc4ccc(CNC(=O)CCCCCCC(=O)NO)cc4)ncc3F)cc2n1C(C)C | enzyme activity, inhibitor | 1 µM |  | inhibition | 14% |
| C[C@H]1CN(C(=O)c2cn(-c3ccnc(N)n3)c3cc(C#CC4(O)CCCCC4)ccc23)CCN1 | enzyme activity, inhibitor, FRET | 1 µM |  | inhibition | 97% |
| COCC12C(=O)NC3C4(C(OC)CC1O)C1CC5(O)C(OC)C(O)C(OC(C)=O)(C1C5OC(=O)c1ccccc1)C3(O)C(OC)C24 (stereo not drawn) | kinase activity, inhibitor, ProQinase kinase profiling | 25 µM | baseline: control | remaining activity | 94% and 102% |
| Cc1cccc(-c2ccc3nc(NC(=O)C4CCOCC4)nn3c2)c1 | enzyme activity, Dundee kinase panel | 10 µM |  | remaining activity | 74% |
| Cc1c[nH]c2nccc(-c3ccc(C(=O)N[C@@H]4c5c(F)cc(C(F)F)cc5C[C@@H]4O)cn3)c12 | binding, competition with immobilised ligand | 3 µM |  | remaining binding | 14% |
| O=C=[N][Ru-4]123([n]4c5ccc(O)cc5c5c6c(c7cc(F)c[n+]1c7c54)C(=O)NC6=O)[S+]1CC[S+]2CC[S+]3CC1 (stereo not drawn) | enzyme activity | 100 nM, human enzyme, added: 10 µM ATP | baseline: untreated | remaining activity | 96% |
| COc1ccc(C(=O)/C=C/c2ccccc2-c2c[nH]c3ccc(C#N)cc23)c(O)c1 | enzyme activity, inhibitor | 20 µM |  | inhibition | 10% |
| Nc1nc(Nc2ccccc2)sc1C(=O)c1ccccc1 | enzyme activity, inhibitor | 10 µM |  | remaining activity | 38% |
| C=CC(=O)Nc1cccc(-c2cnc3[nH]cc(C(=O)NC(C)(C)C)c3n2)c1 | kinase activity | 0.1 µM |  | inhibition | 11% and 14% |
| NC(=O)C[C@H]1CCc2sc3ncnc(O[C@H]4CC[C@H](N5CCOCC5)CC4)c3c21 | enzyme activity, inhibitor | 10 µM |  | inhibition | 3% |
| COc1cc(Nc2nc(C)cc(-c3cnn4nc(OC)ccc34)n2)cc(C(F)(F)F)c1 | kinase binding | 1 µM, PAK7 |  | percent of control binding | 75% |
| CCn1cc(C(=O)O)c(=O)c2c(N)c(F)c(NC3CCCCC3)cc21 | kinase activity | 0.1 µM, added: ATP at Km |  | inhibition | 8.9% |
